Measured values of several laboratories.
Compare with care: the assays were run in different laboratories. Several values in a cell are separate wells, animals, samples, runs or records.
Target: PAS domain-containing serine/threonine-protein kinase (PASK, Homo sapiens, UniProt Q96RG2)

| SMILES | test | conditions | how to read | endpoint | value |
| --- | --- | --- | --- | --- | --- |
| O=C(Cc1ccc(OCc2ccccc2)cc1)NC1(C(=O)O)CCN(C(=O)c2ccc(-c3cccc(Cl)c3)cc2)CC1 | enzyme activity, inhibitor | 10 µM | – | activity vs control | 119% |
| NC(=O)C[C@H]1CCc2sc3ncnc(O[C@H]4CC[C@H](N5CCOCC5)CC4)c3c21 | enzyme activity, inhibitor | 10 µM | – | inhibition | 0% |
| C=CC(=O)N1Cc2nc(-c3cc(-c4cc(Cl)cnc4Cl)c(F)cc3F)n(-c3ccncn3)c2C1 | cell-free assay, inhibitor | 1 µM | – | inhibition | 2.7% |
| CCn1cc(C(=O)O)c(=O)c2c(N)c(F)c(NC3CCCCC3)cc21 | kinase activity | 0.1 µM, together with: ATP at Km | – | inhibition | -3.1% |
| O=C=[N][Ru-4]123([n]4c5ccc(O)cc5c5c6c(c7cc(F)c[n+]1c7c54)C(=O)NC6=O)[S+]1CC[S+]2CC[S+]3CC1 (stereo not drawn) | enzyme activity | 100 nM, human enzyme, together with: 10 µM ATP | reference: untreated | remaining activity | 102% |
| Nc1ncc(-c2cc(-c3cnn(CC(F)(F)F)c3)ncc2F)nc1C(=O)NC1CNCC(F)C1 (stereo not drawn) | enzyme activity | 1 µM | reference: DMSO control | remaining activity | 90.1% |
| CN1CC[C@@H](COc2cnc(C#N)cc2-c2ccn3nc(NC(=O)C4CC4)cc3c2)C1 | enzyme activity, inhibitor | 1 µM | – | inhibition | -41% |
| C=CC(=O)Nc1cccc(-c2cnc3[nH]cc(C(=O)NC(C)(C)C)c3n2)c1 | kinase activity | 0.1 µM | – | inhibition | 1% and 0% |
| Cc1cccc(O[C@H]2CCC[C@@H](C(C)CNCc3ccncc3)C2)c1 (relative stereo) | enzyme activity, inhibitor | 10 µM | – | inhibition | -11% |

Excerpt of the above:
| SMILES | test | conditions | how to read | endpoint | value |
| --- | --- | --- | --- | --- | --- |
| O=C(Cc1ccc(OCc2ccccc2)cc1)NC1(C(=O)O)CCN(C(=O)c2ccc(-c3cccc(Cl)c3)cc2)CC1 | enzyme activity, inhibitor | 10 µM | – | activity vs control | 119% |
